Experimental data gathered from unrelated publications.
Each line is one published result; not all experiments were run side by side. ± gives the spread as reported.
BCHE: Cholinesterase (BCHE, Homo sapiens, UniProt P06276)
inhA: Enoyl-[acyl-carrier-protein] reductase [NADH] (inhA, Mycobacterium tuberculosis, UniProt P9WGR1)
ache: Acetylcholinesterase (ache, Electrophorus electricus, UniProt O42275)

The chains behind the UniProt entries cited, without tags or fusion partners. Residues count along the entry.
UniProt P06276, whole entry, looked up: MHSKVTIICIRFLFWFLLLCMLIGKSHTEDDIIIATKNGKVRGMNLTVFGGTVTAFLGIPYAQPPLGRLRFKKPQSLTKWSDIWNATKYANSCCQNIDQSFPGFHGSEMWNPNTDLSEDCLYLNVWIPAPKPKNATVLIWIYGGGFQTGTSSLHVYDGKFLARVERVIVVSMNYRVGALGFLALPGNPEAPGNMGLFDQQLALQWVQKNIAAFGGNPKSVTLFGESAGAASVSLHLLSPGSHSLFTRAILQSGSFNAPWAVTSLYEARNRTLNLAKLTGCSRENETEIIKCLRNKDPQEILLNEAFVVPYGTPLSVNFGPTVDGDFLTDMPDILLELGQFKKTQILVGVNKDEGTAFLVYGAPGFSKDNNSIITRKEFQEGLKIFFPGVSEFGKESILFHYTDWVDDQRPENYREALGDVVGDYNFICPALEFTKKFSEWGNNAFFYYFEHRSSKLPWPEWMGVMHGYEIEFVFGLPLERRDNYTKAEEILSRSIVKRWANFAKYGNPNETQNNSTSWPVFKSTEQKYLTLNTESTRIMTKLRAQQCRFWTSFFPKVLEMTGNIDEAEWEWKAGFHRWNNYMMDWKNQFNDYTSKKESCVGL
UniProt P9WGR1, whole entry: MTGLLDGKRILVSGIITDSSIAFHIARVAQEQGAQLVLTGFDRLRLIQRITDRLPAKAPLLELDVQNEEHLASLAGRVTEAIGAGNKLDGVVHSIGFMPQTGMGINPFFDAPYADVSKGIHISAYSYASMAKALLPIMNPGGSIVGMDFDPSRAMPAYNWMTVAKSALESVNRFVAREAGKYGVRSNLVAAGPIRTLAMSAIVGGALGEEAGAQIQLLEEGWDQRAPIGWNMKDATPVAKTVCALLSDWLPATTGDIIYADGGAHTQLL
UniProt P00533, 25-1210 limits assumed: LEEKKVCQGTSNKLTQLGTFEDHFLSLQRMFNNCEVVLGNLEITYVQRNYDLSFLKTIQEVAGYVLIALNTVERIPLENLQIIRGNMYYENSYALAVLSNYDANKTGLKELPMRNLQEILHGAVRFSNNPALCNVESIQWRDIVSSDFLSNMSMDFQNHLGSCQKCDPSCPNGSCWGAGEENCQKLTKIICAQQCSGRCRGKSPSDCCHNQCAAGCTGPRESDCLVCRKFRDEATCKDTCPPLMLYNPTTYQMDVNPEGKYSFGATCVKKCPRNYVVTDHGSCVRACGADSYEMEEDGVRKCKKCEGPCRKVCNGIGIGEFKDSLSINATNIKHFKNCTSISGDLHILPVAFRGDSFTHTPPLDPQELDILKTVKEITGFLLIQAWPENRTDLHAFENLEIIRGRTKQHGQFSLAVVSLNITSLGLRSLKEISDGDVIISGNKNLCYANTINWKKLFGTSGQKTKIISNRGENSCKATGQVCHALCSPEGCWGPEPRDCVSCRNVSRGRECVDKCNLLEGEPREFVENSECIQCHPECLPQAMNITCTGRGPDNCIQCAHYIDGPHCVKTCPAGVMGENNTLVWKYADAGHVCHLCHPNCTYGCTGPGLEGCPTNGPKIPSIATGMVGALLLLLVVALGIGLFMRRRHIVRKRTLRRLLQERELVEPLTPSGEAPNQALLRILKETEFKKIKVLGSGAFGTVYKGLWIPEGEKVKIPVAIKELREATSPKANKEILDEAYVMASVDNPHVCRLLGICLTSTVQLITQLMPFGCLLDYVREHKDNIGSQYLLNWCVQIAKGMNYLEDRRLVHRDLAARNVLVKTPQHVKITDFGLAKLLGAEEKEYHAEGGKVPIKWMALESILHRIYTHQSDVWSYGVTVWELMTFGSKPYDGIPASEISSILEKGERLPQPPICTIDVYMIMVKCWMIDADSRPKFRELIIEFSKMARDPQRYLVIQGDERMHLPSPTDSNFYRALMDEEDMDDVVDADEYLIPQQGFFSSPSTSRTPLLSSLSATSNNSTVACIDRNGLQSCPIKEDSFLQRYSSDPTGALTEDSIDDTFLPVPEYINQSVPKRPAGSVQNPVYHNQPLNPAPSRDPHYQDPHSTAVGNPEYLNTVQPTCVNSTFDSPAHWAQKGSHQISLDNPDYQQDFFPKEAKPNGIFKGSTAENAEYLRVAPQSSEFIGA
UniProt O15393, whole entry S251D/R252D/Q253D/S254D/R255K, looked up: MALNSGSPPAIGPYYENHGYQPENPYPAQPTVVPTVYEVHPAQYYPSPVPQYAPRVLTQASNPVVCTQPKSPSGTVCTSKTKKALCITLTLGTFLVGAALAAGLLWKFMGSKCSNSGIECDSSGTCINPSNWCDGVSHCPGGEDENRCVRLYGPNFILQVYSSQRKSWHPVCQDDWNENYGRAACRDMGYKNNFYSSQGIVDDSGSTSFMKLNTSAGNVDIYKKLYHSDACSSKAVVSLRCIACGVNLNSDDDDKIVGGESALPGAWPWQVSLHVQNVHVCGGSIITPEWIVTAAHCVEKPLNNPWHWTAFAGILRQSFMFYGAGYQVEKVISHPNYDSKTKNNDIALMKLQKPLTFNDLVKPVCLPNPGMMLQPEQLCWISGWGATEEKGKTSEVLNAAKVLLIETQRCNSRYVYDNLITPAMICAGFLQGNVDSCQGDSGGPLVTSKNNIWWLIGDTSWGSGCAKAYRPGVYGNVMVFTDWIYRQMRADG
UniProt I6WXK4, whole entry: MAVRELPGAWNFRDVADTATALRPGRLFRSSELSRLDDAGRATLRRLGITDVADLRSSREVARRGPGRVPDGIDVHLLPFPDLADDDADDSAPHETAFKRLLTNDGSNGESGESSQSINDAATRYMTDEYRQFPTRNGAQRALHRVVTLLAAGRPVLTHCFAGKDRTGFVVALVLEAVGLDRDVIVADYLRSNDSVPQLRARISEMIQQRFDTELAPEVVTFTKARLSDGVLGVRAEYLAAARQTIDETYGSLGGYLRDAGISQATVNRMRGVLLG
UniProt P22303, whole entry, looked up: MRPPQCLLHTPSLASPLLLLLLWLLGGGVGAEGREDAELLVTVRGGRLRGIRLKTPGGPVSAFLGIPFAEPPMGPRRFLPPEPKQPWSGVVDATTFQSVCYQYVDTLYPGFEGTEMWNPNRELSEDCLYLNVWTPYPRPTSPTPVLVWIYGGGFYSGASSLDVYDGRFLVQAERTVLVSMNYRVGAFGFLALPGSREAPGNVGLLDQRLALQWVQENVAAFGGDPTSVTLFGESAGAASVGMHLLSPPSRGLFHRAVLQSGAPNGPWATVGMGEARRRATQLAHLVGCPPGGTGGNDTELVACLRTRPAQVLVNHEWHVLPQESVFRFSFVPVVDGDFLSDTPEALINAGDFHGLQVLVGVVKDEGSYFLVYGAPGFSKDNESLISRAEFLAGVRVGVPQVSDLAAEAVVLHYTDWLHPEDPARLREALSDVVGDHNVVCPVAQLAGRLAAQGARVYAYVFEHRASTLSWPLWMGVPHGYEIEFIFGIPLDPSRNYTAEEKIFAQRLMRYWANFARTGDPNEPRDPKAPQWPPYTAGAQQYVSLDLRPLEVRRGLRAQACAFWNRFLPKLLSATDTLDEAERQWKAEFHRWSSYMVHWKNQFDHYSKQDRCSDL
UniProt Q9Y5N1, whole entry: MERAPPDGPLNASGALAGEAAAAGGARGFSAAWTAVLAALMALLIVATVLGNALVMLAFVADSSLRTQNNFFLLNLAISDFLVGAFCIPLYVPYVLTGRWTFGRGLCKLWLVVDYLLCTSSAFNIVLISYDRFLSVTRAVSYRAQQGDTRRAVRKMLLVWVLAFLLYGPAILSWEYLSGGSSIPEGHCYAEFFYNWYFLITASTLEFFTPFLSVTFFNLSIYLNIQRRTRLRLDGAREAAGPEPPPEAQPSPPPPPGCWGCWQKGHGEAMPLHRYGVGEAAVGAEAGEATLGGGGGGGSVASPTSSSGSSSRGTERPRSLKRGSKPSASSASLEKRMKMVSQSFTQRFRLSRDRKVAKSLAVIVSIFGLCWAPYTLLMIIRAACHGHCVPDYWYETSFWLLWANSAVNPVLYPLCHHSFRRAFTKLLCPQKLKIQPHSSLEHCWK
UniProt O33336, whole entry: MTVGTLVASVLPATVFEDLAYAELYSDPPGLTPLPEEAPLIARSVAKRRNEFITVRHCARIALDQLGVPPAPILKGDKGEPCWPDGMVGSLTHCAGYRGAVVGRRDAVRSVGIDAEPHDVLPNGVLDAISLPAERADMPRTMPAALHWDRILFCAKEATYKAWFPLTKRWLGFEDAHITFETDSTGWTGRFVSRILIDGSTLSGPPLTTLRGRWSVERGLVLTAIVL
UniProt Q9NUW8, whole entry: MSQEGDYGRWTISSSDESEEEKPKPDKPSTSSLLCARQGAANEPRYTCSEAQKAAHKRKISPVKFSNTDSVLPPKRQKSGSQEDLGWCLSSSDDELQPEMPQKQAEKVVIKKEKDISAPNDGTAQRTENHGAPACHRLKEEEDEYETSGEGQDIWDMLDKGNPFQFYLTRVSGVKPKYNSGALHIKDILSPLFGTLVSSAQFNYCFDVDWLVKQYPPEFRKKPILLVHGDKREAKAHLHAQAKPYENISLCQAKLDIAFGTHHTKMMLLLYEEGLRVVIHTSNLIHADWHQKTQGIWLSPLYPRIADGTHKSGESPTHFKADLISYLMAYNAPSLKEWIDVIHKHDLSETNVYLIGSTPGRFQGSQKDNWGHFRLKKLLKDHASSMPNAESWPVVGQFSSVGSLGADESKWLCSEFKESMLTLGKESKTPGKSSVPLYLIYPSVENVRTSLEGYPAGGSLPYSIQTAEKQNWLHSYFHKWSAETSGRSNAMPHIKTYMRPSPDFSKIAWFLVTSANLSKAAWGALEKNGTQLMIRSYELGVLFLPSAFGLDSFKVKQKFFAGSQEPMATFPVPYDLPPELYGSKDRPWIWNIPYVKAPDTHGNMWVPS
UniProt P81947, whole entry: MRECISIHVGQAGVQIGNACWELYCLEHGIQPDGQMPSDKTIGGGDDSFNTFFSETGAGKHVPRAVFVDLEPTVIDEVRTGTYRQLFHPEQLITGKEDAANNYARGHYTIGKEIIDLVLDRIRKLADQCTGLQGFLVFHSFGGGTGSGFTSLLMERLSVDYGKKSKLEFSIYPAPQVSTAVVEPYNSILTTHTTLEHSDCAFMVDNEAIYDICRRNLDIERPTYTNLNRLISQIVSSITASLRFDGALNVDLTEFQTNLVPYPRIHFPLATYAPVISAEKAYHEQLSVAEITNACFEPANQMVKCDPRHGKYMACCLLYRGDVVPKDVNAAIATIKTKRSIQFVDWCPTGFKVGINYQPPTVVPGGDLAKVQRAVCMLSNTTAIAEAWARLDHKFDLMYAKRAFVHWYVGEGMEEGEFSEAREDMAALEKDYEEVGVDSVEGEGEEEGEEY
UniProt Q6B856, whole entry: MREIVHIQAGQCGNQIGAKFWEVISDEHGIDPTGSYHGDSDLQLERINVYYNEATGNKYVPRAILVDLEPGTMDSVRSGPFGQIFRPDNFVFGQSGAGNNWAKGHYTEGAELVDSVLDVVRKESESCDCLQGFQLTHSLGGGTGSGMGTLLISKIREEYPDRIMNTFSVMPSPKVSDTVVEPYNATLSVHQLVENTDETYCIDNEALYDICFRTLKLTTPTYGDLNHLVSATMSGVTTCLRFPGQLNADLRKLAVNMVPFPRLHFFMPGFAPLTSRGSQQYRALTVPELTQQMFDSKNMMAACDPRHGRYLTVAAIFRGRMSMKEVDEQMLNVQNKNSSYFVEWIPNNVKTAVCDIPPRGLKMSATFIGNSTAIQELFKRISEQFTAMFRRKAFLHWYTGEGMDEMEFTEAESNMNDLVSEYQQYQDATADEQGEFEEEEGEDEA
UniProt P9WHR3, 31-520 limits assumed: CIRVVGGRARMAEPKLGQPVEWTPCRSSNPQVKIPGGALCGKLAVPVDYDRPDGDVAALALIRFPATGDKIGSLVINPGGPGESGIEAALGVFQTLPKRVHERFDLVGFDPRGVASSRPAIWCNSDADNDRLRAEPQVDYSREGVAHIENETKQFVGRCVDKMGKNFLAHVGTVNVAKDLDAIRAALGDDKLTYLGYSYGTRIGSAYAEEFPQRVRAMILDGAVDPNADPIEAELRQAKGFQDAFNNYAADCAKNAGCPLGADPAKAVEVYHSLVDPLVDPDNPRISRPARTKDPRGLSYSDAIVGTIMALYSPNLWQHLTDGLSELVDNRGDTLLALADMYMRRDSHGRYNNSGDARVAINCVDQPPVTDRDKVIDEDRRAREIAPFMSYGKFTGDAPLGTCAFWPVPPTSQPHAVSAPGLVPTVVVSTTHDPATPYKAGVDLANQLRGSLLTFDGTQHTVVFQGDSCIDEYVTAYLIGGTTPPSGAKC
UniProt P9WFX1, whole entry: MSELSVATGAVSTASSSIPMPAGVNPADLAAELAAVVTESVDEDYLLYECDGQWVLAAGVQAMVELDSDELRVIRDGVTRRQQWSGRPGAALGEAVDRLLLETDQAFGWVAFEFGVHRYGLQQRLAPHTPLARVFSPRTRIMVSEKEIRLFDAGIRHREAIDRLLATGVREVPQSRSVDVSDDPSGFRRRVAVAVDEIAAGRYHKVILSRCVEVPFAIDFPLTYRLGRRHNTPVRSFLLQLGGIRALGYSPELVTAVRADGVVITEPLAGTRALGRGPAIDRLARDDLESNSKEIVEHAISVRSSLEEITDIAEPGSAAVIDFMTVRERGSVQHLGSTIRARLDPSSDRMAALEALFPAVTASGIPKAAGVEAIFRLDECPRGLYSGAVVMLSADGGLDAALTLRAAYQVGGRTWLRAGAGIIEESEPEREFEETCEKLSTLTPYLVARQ

Compound | target or system | assay | test system | conditions | endpoint | result
CC(C)(C)c1cc[n+](CCCCCCCC[n+]2ccc(C(C)(C)C)cc2)cc1 | BCHE | enzyme activity, inhibitor | – | – | IC50 | 20 ± 3 nM
Oc1cc(Cc2ccccn2)ccc1Oc1ccc(Cl)cc1Cl | inhA | inhibitor | – | – | IC50 | 29 ± 11 nM
C=CC(=O)Nc1cc(-n2c(=O)ccc3cnc4ccc(-c5cn[nH]c5)cc4c32)ccc1C | EGFR (Homo sapiens, UniProt P00533) | KinomeScan binding | – | 1 µM | remaining binding | 56%
CC(C)(C)O[C@@H]1C[C@@H](C(=O)N[C@H](Cc2ccccc2)C(=O)C(=O)NCc2ccc(Cl)cn2)N(C(=O)[C@@H](NC(=O)C2CCC(F)(F)CC2)C2CCCCC2)C1 | TMPRSS2 (Homo sapiens, UniProt O15393, Q253D/R252D/R255K/S251D/S254D) | enzyme activity, inhibitor | – | – | IC50 | > 500000 nM
NCCNCCSc1ccccc1 | – | ultrafiltration | mouse plasma, female | 25 µg/mL, 60 min, 37 °C | unbound concentration | 18860 ± 90 ng/mL
C#CCOCCC(=O)N[C@H](Cc1ccccc1)C(=O)N[C@@H](Cc1ccccc1)C(=O)N[C@@H](CCCNC(N)=O)C(=O)CCl | Replicase polyprotein 1ab, main protease (rep, Severe acute respiratory syndrome coronavirus 2, UniProt P0DTD1) | enzyme activity, inhibitor | – | near enzyme concentration | IC50 | 25 ± 5 nM
COc1ccccc1CCN1CCC(CN(C)Cc2ccncc2)CC1 | ache | enzyme activity, inhibitor, Ellman | – | 10 min preincubation, pH 8, 23 °C | IC50 | 481000 ± 36000 nM
NC[C@@H](NC[C@@H]1CCCN1C[C@@H](CO)NC[C@@H](NCCC1CC2CCC1C2)c1ccccc1)c1ccccc1 (stereo partly shown) | Klebsiella pneumoniae | bacterial growth | – | 8 µM, fold shift of IC50, together with: amikacin | potentiation of amikacin | 1.5 fold
Oc1cc(-c2cccnc2)ccc1Oc1ccc(Cl)cc1Cl | inhA | inhibitor | – | – | IC50 | > 10000 nM
O=C(O)c1cc2cc(Cl)cc(OCc3cn(CCC(=O)N4CCC(c5ccc(Cl)c(Cl)c5)CC4)nn3)c2c(Cl)c1OCc1cn(CCC(=O)N2CCC(c3ccc(Cl)c(Cl)c3)CC2)nn1 | ptpB (Mycobacterium tuberculosis, UniProt I6WXK4) | inhibitor | – | pH 7 | IC50 | 160 ± 10 nM
c1ccc2c(c1)ccc[n+]2CCCCCCCCCC[n+]1cccc2ccccc21 | ACHE (Homo sapiens, UniProt P22303) | enzyme activity, inhibitor | – | – | IC50 | 1 ± 0.2 nM
Cc1ccc(Oc2ccc(Cl)cc2Cl)c(O)c1 | inhA | inhibitor | – | – | IC50 | 800 ± 99 nM
CCN1CCN(c2nnc(-c3ccccn3)s2)CC1 | ache | enzyme activity, inhibitor, Ellman | – | 10 min preincubation, pH 8, 23 °C | IC50 | 634000 ± 67000 nM
COc1ccc(CN[C@@H]2CO[C@H](C(c3ccccc3)c3ccccc3)C[C@H]2O)cc1 | HRH3 (Homo sapiens, UniProt Q9Y5N1) | radioligand binding | – | 10 µM, together with: [3H]alpha-methylhistamine | inhibition | 3%
O=c1c2ccccc2[nH]c(=S)n1Cc1cccnc1 | 4'-phosphopantetheinyl transferase PptT (Mycobacterium tuberculosis, UniProt O33336) | enzyme activity, inhibitor, fluorescence polarization | – | – | IC50 | 790 nM
Oc1cc(-c2ccc(F)cc2)ccc1Oc1ccc(Cl)cc1Cl | inhA | inhibitor | – | – | IC50 | > 10000 nM
N#Cc1ccc(-c2ccc(COCCc3ccc(-c4nc5ccccn5c4Nc4ccc(C(=O)O)cc4)cc3)cc2)nc1 | TDP1 (Homo sapiens, UniProt Q9NUW8) | enzyme activity, inhibitor | – | – | IC50 | 25100 ± 1250 nM
CC(CCN[C@H](CN[C@H](CO)CN1CCC[C@H]1CN[C@H](CN)c1ccccc1)c1ccccc1)c1ccccc1 (stereo partly shown) | Klebsiella pneumoniae | bacterial growth | – | 24 µM, fold shift of IC50, together with: amikacin | potentiation of amikacin | 2.6 fold
[11CH3]Nc1ccc(C(=O)C2CCN(C3Cc4ccccc4CC3O)CC2)cc1 (single isomer, unassigned) | – | – | Sprague-Dawley rat, thalamus | 30 min | uptake | 0.293 %ID/g
c1ccc2c[n+](CCCCCCCC[n+]3ccc4ccccc4c3)ccc2c1 | BCHE | enzyme activity, inhibitor | – | – | IC50 | 400 ± 60 nM
C[C@H](CS)C(=O)N[C@@H](Cc1c[nH]c2ccccc12)C(=O)O | Klebsiella pneumoniae | – | IMP-1 producing | 25 µM, together with: meropenem | MIC of meropenem | 8 µg/mL
CC[C@H](C)[C@@H]([C@@H](CC(=O)N1CCC[C@H]1[C@H](OC)[C@@H](C)C(=O)NCCc1ccccc1)OC)N(C)C(=O)[C@@H](NC(=O)[C@H](C(C)C)N(C)C)C(C)C [isotope labelled] | Tubulin alpha-1B chain/TUBB2B (Bos taurus, UniProt P81947+Q6B856) | tubulin polymerization, inhibitor | – | 30 min, 37 °C, together with: monosodium glutamate | IC50 | 1200 nM
NCCCC[C@H](NC(=O)OCC1c2ccccc2-c2ccccc21)C(=O)Nc1ccc2c(Cl)c(OCCBr)oc(=O)c2c1 | hip1 (Mycobacterium tuberculosis, UniProt P9WHR3) | protease activity, inhibitor, chemiluminescence | – | – | IC50 | 270 nM
O=C(O)c1ccc(-c2ccc([N+](=O)[O-])cc2Cl)o1 | mbtI (Mycobacterium tuberculosis, UniProt P9WFX1) | enzyme activity, inhibitor | – | – | IC50 | 17900 ± 3200 nM
CCCCCCCCCCCCNC(=O)N[C@H](C(=O)N[C@H]1/C=C/CCNC(=O)/C=C/[C@H](C)NC1=O)C(C)C | PSMB5 (Homo sapiens, UniProt P28074) | chymotrypsin-like activity, inhibitor, Proteasome-Glo | ARD | 24 h | Ki | 14.6 ± 2.68 nM

Repeated from above:
Compound | target or system | assay | test system | conditions | endpoint | result
COc1ccccc1CCN1CCC(CN(C)Cc2ccncc2)CC1 | ache | enzyme activity, inhibitor, Ellman | – | 10 min preincubation, pH 8, 23 °C | IC50 | 481000 ± 36000 nM
NC[C@@H](NC[C@@H]1CCCN1C[C@@H](CO)NC[C@@H](NCCC1CC2CCC1C2)c1ccccc1)c1ccccc1 (stereo partly shown) | Klebsiella pneumoniae | bacterial growth | – | 8 µM, fold shift of IC50, together with: amikacin | potentiation of amikacin | 1.5 fold
Oc1cc(-c2cccnc2)ccc1Oc1ccc(Cl)cc1Cl | inhA | inhibitor | – | – | IC50 | > 10000 nM
O=C(O)c1cc2cc(Cl)cc(OCc3cn(CCC(=O)N4CCC(c5ccc(Cl)c(Cl)c5)CC4)nn3)c2c(Cl)c1OCc1cn(CCC(=O)N2CCC(c3ccc(Cl)c(Cl)c3)CC2)nn1 | ptpB (Mycobacterium tuberculosis, UniProt I6WXK4) | inhibitor | – | pH 7 | IC50 | 160 ± 10 nM
